Published values pooled from the literature.
A part holds a random share of what one study measured.
UniProt P48730, sequence (whole entry, looked up): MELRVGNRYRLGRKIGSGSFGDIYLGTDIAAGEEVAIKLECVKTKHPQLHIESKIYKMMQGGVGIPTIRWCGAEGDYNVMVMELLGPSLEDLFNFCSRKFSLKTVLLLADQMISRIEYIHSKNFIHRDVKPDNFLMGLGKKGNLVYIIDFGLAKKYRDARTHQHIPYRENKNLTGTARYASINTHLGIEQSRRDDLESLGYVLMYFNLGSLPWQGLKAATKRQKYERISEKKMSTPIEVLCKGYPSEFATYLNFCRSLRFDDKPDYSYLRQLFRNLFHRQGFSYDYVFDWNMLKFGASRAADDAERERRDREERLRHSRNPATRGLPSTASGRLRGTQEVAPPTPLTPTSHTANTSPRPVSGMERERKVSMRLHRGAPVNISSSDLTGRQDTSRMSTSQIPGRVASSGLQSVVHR
UniProt Q9UK32, sequence (whole entry, looked up): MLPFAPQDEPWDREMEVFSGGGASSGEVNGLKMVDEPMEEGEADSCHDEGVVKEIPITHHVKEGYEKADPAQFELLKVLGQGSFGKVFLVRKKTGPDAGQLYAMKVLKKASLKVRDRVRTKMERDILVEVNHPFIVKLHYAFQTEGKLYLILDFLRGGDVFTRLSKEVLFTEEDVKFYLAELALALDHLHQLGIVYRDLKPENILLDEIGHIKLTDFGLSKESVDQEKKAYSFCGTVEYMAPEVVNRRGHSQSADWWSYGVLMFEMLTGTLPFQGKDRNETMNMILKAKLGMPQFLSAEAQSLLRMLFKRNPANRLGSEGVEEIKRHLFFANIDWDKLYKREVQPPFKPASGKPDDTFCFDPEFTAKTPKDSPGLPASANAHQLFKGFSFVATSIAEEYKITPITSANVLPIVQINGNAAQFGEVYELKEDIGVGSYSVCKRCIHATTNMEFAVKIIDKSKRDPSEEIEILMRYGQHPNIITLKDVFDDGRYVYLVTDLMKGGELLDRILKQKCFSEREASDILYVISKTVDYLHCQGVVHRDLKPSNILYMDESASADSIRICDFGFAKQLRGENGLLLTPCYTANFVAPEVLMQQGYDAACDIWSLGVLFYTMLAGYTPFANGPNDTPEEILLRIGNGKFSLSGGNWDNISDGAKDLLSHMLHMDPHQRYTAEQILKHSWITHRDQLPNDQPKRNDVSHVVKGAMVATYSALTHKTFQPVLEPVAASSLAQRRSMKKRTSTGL
UniProt P53671, sequence (whole entry, looked up): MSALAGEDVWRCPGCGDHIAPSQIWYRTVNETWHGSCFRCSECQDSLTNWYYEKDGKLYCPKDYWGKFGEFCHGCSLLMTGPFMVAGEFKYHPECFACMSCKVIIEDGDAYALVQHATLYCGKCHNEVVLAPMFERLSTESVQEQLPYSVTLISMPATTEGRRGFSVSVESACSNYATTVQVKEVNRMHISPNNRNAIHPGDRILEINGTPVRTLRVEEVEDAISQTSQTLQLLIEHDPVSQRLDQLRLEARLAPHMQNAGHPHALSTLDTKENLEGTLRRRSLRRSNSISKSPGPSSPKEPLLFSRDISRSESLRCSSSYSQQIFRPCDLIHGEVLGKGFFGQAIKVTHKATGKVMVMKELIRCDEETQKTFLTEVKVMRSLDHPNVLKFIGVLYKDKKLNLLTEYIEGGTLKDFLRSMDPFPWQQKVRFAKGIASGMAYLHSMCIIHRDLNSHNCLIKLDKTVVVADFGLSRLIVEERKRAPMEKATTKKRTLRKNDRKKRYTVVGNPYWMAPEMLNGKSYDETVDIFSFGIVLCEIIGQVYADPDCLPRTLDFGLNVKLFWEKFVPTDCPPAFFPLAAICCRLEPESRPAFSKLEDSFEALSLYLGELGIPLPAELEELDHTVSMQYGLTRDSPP
UniProt Q9UQB9, sequence (whole entry, looked up): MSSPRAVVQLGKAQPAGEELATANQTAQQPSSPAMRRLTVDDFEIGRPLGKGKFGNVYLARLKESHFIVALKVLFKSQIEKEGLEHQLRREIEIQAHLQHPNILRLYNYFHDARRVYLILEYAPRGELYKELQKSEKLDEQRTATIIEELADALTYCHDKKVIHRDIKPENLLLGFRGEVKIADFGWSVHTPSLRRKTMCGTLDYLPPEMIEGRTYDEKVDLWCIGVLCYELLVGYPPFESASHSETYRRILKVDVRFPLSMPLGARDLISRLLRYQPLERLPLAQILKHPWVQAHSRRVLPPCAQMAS
UniProt Q9H0K1, sequence (whole entry, looked up): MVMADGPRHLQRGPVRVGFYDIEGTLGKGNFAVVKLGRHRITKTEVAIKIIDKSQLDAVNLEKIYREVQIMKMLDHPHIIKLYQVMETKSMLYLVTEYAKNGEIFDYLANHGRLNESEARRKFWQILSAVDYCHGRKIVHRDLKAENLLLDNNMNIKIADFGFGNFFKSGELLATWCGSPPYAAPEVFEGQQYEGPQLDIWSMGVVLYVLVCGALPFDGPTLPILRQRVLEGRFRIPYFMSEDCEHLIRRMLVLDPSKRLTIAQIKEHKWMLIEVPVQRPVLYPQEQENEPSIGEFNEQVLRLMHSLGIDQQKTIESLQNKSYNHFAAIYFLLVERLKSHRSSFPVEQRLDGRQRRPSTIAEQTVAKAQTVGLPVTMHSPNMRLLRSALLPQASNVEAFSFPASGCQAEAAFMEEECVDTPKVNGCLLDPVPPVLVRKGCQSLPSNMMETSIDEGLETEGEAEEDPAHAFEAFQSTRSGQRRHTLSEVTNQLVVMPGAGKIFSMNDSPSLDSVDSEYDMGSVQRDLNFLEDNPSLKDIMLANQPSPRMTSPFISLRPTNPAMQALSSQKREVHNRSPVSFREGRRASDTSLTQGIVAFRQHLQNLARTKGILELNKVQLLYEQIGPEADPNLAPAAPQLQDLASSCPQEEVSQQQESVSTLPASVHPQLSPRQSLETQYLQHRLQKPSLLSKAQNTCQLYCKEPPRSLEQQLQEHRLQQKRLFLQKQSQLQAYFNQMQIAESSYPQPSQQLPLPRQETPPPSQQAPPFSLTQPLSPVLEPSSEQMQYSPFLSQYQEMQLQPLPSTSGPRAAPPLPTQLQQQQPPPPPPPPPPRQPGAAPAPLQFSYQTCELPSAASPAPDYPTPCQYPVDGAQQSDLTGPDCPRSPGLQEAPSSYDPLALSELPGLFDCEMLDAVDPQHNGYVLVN
UniProt Q8N752, sequence (whole entry, looked up): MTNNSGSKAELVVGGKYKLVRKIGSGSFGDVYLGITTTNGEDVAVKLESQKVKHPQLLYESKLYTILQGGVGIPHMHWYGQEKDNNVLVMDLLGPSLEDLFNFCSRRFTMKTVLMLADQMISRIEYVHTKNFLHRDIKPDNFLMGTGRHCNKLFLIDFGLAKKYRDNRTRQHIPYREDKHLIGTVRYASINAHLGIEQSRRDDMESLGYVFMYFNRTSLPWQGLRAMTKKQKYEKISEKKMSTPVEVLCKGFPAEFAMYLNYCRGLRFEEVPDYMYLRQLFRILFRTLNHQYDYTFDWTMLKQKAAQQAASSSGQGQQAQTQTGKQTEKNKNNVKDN

Study 1 — effect on: enzyme activity; action: inhibitor; tested at: 0.5 µM; reference: control
Target: Serine/threonine-protein kinase D3 (PRKD3, Homo sapiens, UniProt O94806)
UniProt O94806, sequence (whole entry, looked up): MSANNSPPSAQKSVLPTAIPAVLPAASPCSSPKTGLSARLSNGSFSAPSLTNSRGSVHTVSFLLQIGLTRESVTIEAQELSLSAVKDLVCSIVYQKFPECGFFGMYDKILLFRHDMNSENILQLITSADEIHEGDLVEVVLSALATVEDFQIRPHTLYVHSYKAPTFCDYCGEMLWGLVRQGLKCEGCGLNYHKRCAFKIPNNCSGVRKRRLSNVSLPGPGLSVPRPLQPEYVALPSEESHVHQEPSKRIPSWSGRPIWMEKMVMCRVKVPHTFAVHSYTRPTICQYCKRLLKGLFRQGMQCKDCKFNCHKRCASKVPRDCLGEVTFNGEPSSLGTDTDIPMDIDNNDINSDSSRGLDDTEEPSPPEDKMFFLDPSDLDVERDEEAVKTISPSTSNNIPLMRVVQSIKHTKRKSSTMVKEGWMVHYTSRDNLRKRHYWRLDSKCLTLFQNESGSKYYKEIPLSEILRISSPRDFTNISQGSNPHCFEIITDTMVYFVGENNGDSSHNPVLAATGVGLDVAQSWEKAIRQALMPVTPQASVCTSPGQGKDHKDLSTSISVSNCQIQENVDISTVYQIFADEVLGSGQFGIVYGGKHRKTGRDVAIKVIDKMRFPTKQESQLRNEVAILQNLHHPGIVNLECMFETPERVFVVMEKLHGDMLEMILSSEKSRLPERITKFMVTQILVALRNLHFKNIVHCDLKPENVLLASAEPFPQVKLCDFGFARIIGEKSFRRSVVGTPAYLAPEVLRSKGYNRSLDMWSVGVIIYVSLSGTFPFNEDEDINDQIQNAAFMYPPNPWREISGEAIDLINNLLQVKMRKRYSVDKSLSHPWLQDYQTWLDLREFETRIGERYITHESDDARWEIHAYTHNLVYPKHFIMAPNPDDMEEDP
For `N#CC(=C(N)Sc1ccc(N)cc1)c1ccccc1C(F)(F)F`, the remaining activity was 96.8%.
`CC[n+]1c(/C=C/N(C)c2ccccc2)n(-c2ccccc2)c2ccc(-c3nc4ccccc4s3)cc21` has a remaining activity of 97.4%.
For `CC(C)(C)n1nc(Cc2cccc3ccccc23)c2c(N)ncnc21`, the remaining activity was 20.9%.
`CCc1[nH]c(-c2ccc(OC)cc2)nc1-c1ccncc1` has a remaining activity of 97.1%.
For `Oc1ccc(Nc2nc(-c3ccc(Cl)cc3)cs2)cc1`, the remaining activity was 97.7%.
For `Cc1ccc(NC2=CC(=O)c3sc(C)nc3C2=O)cc1`, the remaining activity was 93.5%.
For `O=C1Cc2c([nH]c3ccc([N+](=O)[O-])cc23)-c2ccccc2N1`, the remaining activity was 88.2%.
`Nc1ncnc2c1cnn2-c1ccccc1` gave a remaining activity of 87.3%.
`CCCC(=O)Oc1ccc2[nH]c(C(=O)c3cc4ccccc4[nH]3)cc2c1` gave a remaining activity of 102%.
For `NC(=O)c1ccc(N(C(N)=O)c2c(F)cccc2F)nc1-c1ccc(F)cc1F`, the remaining activity was 85.1%.
`Cc1cc(Nc2nc(-c3ccccc3)nc3ccccc23)n[nH]1` has a remaining activity of 93.9%.
The remaining activity of `CC#CC(=O)Nc1cc2c(Nc3ccc(F)c(Cl)c3)ncnc2cn1` is reported as 103%.
`Cc1cncc2cccc(S(=O)(=O)N3CCCN(C(=O)CN)C[C@@H]3C)c12` has a remaining activity of 85.4%.
For `Nc1nccc(-c2c(-c3ccc(F)cc3)ncn2C2CCNCC2)n1`, the remaining activity was 37.9%.
For `Fc1ccc(-c2nc3n(c2-c2ccncc2)CCS3)cc1`, the remaining activity was 88.2%.
`CC(=O)c1ccc(N2CCOCC2)cc1O` gave a remaining activity of 98.4%.
For `COc1ccc(S(=O)(=O)N(CCO)c2ccccc2CN(C)CC=Cc2ccc(Cl)cc2)cc1`, the remaining activity was 97.1%.
`Nc1nc(Nc2ccc(S(N)(=O)=O)cc2)nn1C(=O)c1c(F)cccc1F` gave a remaining activity of 55.6%.
The remaining activity of `CSc1nc(-c2ccnc(N[C@@H](C)c3ccccc3)c2)c(-c2ccc(F)cc2)[nH]1` (racemic) is reported as 82%.
For `O=S(=O)(NCCNC/C=C/c1ccc(Br)cc1)c1cccc2cnccc12`, the remaining activity was 79.2%.
The remaining activity of `O=C1NC(=O)C(c2c[nH]c3ccccc23)=C1c1c[nH]c2ccccc12` is reported as 88.4%.

Study 2 — effect on: enzyme activity; action: inhibitor; tested at: 10 µM
Target: Calcium/calmodulin-dependent protein kinase type II subunit alpha (CAMK2A, Homo sapiens, UniProt Q9UQM7)
UniProt Q9UQM7, sequence (whole entry, looked up): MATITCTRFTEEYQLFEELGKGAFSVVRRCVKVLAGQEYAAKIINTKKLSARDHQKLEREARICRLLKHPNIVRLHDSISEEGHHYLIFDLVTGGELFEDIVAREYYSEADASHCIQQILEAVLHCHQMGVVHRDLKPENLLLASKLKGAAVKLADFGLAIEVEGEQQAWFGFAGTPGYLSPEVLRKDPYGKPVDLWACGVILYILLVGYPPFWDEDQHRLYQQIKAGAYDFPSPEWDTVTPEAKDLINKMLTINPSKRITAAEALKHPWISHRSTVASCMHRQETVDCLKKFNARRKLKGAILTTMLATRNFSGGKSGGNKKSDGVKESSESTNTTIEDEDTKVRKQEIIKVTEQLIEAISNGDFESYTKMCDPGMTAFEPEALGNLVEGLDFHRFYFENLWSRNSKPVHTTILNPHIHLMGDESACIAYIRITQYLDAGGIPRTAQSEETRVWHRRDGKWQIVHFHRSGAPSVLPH
With `CC1(C)C(C=C(Cl)Cl)C1C(=O)OCc1cccc(Oc2ccccc2)c1` (stereo not shown) the inhibition was 0%.
For `CC(/C=C/C=C(\C)C(=O)O)=C\C=C\C=C(C)\C=C\C=C(/C)C(=O)O`, the inhibition was 7%.
With `C/C=C(\C)C(=O)O[C@H]1[C@H](OC(C)=O)[C@@]2(CO)C(CC1(C)C)C1=CCC3[C@@]4(C)CCC(O[C@@H]5O[C@H](C(=O)O)[C@@H](O[C@@H]6O[C@H](CO)[C@@H](O)[C@H](O)[C@H]6O)[C@H](O)[C@H]5O[C@@H]5O[C@H](CO)[C@@H](O)[C@H](O)[C@H]5O)[C@](C)(CO)C4CC[C@@]3(C)[C@]1(C)C[C@H]2O` (stereo partly shown) the inhibition was -6%.
The inhibition of `C=CCc1ccc(OC)c(OC)c1` is reported as -9%.
With `Cn1cnc([N+](=O)[O-])c1Sc1ncnc2[nH]cnc12` the inhibition was -1%.
The inhibition of `Cc1cc(NC(=O)C2=C(O)c3ccccc3S(=O)(=O)N2C)no1` is reported as -7%.
`O=C(O)[C@@H](O)[C@@H](O)[C@H](O)[C@@H](O)C(=O)O` has an inhibition of 4%.
For `CN(C)C(=O)Oc1ccc[n+](C)c1`, the inhibition was -4%.
`CCCC(=O)c1c(O)c(Cc2c(O)c(Cc3c(O)c(C)c(OC)c(C(=O)CCC)c3O)c(O)c(C(=O)[C@@H](C)CC)c2O)c(O)c(C)c1OC` gave an inhibition of 21%.
For `Cc1ncc([N+](=O)[O-])n1C[C@H](O)CN1CCOCC1`, the inhibition was 9%.
With `Cc1cn([C@H]2C[C@H](O)[C@@H](COP(=O)(O)O)O2)c(=O)[nH]c1=O` the inhibition was 14%.
`CCCc1nc(C(C)(C)O)c(C(=O)OCc2oc(=O)oc2C)n1Cc1ccc(-c2ccccc2-c2nnn[nH]2)cc1` has an inhibition of -7%.
The inhibition of `N[C@@H](Cc1ccc(O)c(I)c1)C(=O)O` is reported as -4%.
`NCCCN(CCCCNCCCNC(=O)CCc1ccc(O)c(O)c1)C(=O)CCc1ccc(O)c(O)c1` gave an inhibition of 1%.
`c1ccc2c(c1)CCO2` gave an inhibition of -8%.
`CCN(CC)C(=O)c1cccc(C)c1` has an inhibition of 2%.
The inhibition of `COCCOC(=O)C1=C(C)NC(C)=C(C(=O)OC(C)C)C1c1cccc([N+](=O)[O-])c1` (stereo not shown) is reported as -2%.
With `CCCCCCO` the inhibition was -5%.
`CN1c2ccccc2C(=O)N2CCc3c([nH]c4ccccc34)C21` (racemic) has an inhibition of 12%.

Study 3 — organism: Plasmodium berghei; action: inhibitor; cell line: Huh-7; strain: GFP-expressing sporozoites, liver stage; tested at: 10 µM; time: 24 h; reference: untreated control
For `CCCCCCCCCCOc1cc2c(O)c(C(=O)OCC)cnc2cc1OCC`, the infection rate was 11.8%.
`CC(C[N+](C)(C)C)OC(N)=O` (stereo not shown) has an infection rate of 94.9%.
For `CCCCOc1ccc(C(=O)CCN2CCCCC2)cc1`, the infection rate was 83.3%.
`CC(C)COCC(CN(Cc1ccccc1)c1ccccc1)N1CCCC1` (stereo not shown) has an infection rate of 76.8%.
`Nc1ncn([C@@H]2O[C@H](CO)[C@@H](O)[C@H]2O)c(=O)n1` has an infection rate of 66.9%.
The infection rate of `CC(=O)OCC(=O)[C@@]1(O)CC[C@H]2[C@@H]3CCC4=CC(=O)CC[C@]4(C)[C@H]3C(=O)C[C@@]21C` is reported as 94.1%.
With `CC(=O)N[C@@H](CS)C(=O)O` the infection rate was 108%.
With `CC(=O)Oc1ccccc1C(=O)O` the infection rate was 91.3%.
`CCCCCCCCCCCCCCCCCCCCCCO` gave an infection rate of 103%.
With `C/C=C/c1ccc(OC)cc1` the infection rate was 103%.
The infection rate of `CN(C)CCC(c1ccc(Br)cc1)c1ccccn1` (stereo not shown) is reported as 90.1%.
With `CO/N=C(\C(=O)N[C@@H]1C(=O)N2C(C(=O)O)=C(COC(C)=O)CS[C@H]12)c1csc(N)n1` the infection rate was 83.3%.
The infection rate of `CCOC(=O)c1ccc(N)cc1` is reported as 118%.
With `O=C(O)c1cc(=O)c2c(OCC(O)COc3cccc4oc(C(=O)O)cc(=O)c34)cccc2o1` the infection rate was 81.1%.
`CC(=O)O[C@]1(C(C)=O)CC[C@H]2[C@@H]3C=C(Cl)C4=CC(=O)[C@@H]5C[C@@H]5[C@]4(C)[C@H]3CC[C@@]21C` has an infection rate of 93.4%.
With `CC(C)CCC[C@@H](C)[C@H]1CC[C@H]2[C@@H]3CC=C4C[C@@H](O)CC[C@]4(C)[C@H]3CC[C@]12C` the infection rate was 93.8%.
For `CO/N=C(\C(=O)N[C@@H]1C(=O)N2C(C(=O)O)=C(CSc3nc(=O)c(O)nn3C)CS[C@H]12)c1csc(N)n1`, the infection rate was 77.6%.
`N[C@@H]1CONC1=O` gave an infection rate of 113%.
With `C[C@]12CC[C@@H]3c4ccc(OC(=O)c5ccccc5)cc4CC[C@H]3[C@@H]1CC[C@@H]2O` the infection rate was 119%.
For `COc1cc2nc(N(C)CCCNC(=O)C3CCCO3)nc(N)c2cc1OC` (racemic), the infection rate was 120%.
With `CO/N=C(\C(=O)N[C@@H]1C(=O)N2C(C(=O)OC(C)OC(C)=O)=C(COC(N)=O)CS[C@H]12)c1ccco1` (stereo partly shown) the infection rate was 91.9%.
With `CCN(CC)CCOCCOC(=O)C1(c2ccccc2)CCCC1` the infection rate was 70%.
The infection rate of `CCOC(=O)CCC(=O)O[C@H]1[C@H](O[C@@H]2[C@@H](C)[C@H](O[C@H]3C[C@@](C)(OC)[C@@H](O)[C@H](C)O3)[C@@H](C)C(=O)O[C@H](CC)[C@@](C)(O)[C@H](O)[C@@H](C)C(=O)[C@H](C)C[C@@]2(C)O)O[C@H](C)C[C@@H]1N(C)C` is reported as 96.1%.
`CN1CCc2cccc3c2[C@H]1Cc1ccc(O)c(O)c1-3` has an infection rate of 20.1%.

Study 4 — tested at: 1 µM
Structure (SMILES): C[C@H](NC(=O)c1cnc2n1[C@](C)(Cc1ccc(C#N)cc1)C(=O)N2c1cc(Cl)c(F)c(Cl)c1)C(=O)NC1(c2ccccn2)CC1
It gave 100% for remaining binding (MAP2K4 (Homo sapiens, UniProt P45985); cell-free assay, competition with immobilised ligand).
The remaining binding was 100% (FLT3 (Homo sapiens, UniProt P36888, D835H); cell-free assay, competition with immobilised ligand).
It gave 100% for remaining binding (SIK2 (Homo sapiens, UniProt Q9H0K1); cell-free assay, competition with immobilised ligand).
For PRKD3 (Homo sapiens, UniProt O94806); cell-free assay, competition with immobilised ligand: remaining binding read 100%.
CSNK1A1L (Homo sapiens, UniProt Q8N752); cell-free assay, competition with immobilised ligand — remaining binding: 100%.
EGFR (Homo sapiens, UniProt P00533, T790M); cell-free assay, competition with immobilised ligand — remaining binding: 95%.
Aurora kinase C (AURKC, Homo sapiens, UniProt Q9UQB9); cell-free assay, competition with immobilised ligand — remaining binding: 100%.
For TAOK3 (Homo sapiens, UniProt Q9H2K8); cell-free assay, competition with immobilised ligand: remaining binding read 88%.
For BMPR2 (Homo sapiens, UniProt Q13873); cell-free assay, competition with immobilised ligand: remaining binding read 100%.
It gave 78% for remaining binding (WNK3 (Homo sapiens, UniProt Q9BYP7); cell-free assay, competition with immobilised ligand).
It gave 100% for remaining binding (MAP3K6 (Homo sapiens, UniProt O95382); cell-free assay, competition with immobilised ligand).
It gave 96% for remaining binding (ERN1 (Homo sapiens, UniProt O75460); cell-free assay, competition with immobilised ligand).
For LIM domain kinase 2 (LIMK2, Homo sapiens, UniProt P53671); cell-free assay, competition with immobilised ligand: remaining binding read 100%.
The remaining binding was 100% (AAK1 (Homo sapiens, UniProt Q2M2I8); binding).
It gave 100% for remaining binding (CSNK1D (Homo sapiens, UniProt P48730); cell-free assay, competition with immobilised ligand).
Ribosomal protein S6 kinase alpha-6, C-terminal kinase domain (RPS6KA6, Homo sapiens, UniProt Q9UK32); cell-free assay, competition with immobilised ligand — remaining binding: 100%.
For EGFR (Homo sapiens, UniProt P00533, del746-750); cell-free assay, competition with immobilised ligand: remaining binding read 100%.
It gave 100% for remaining binding (MET (Homo sapiens, UniProt P08581, M1250T); cell-free assay, competition with immobilised ligand).

A few entries again (study 3):
With `CC(C)CCC[C@@H](C)[C@H]1CC[C@H]2[C@@H]3CC=C4C[C@@H](O)CC[C@]4(C)[C@H]3CC[C@]12C` the infection rate was 93.8%.
With `C[C@]12CC[C@@H]3c4ccc(OC(=O)c5ccccc5)cc4CC[C@H]3[C@@H]1CC[C@@H]2O` the infection rate was 119%.
The infection rate of `CCOC(=O)c1ccc(N)cc1` is reported as 118%.
`CC(=O)O[C@]1(C(C)=O)CC[C@H]2[C@@H]3C=C(Cl)C4=CC(=O)[C@@H]5C[C@@H]5[C@]4(C)[C@H]3CC[C@@]21C` has an infection rate of 93.4%.
With `CO/N=C(\C(=O)N[C@@H]1C(=O)N2C(C(=O)O)=C(COC(C)=O)CS[C@H]12)c1csc(N)n1` the infection rate was 83.3%.
With `CCN(CC)CCOCCOC(=O)C1(c2ccccc2)CCCC1` the infection rate was 70%.
For `CCCCCCCCCCOc1cc2c(O)c(C(=O)OCC)cnc2cc1OCC`, the infection rate was 11.8%.
The infection rate of `CCOC(=O)CCC(=O)O[C@H]1[C@H](O[C@@H]2[C@@H](C)[C@H](O[C@H]3C[C@@](C)(OC)[C@@H](O)[C@H](C)O3)[C@@H](C)C(=O)O[C@H](CC)[C@@](C)(O)[C@H](O)[C@@H](C)C(=O)[C@H](C)C[C@@]2(C)O)O[C@H](C)C[C@@H]1N(C)C` is reported as 96.1%.
